Measured values gathered from unrelated publications.
Lines come from different studies, so protocols differ. Values after ≈ are worked out from the molar mass of the structure shown.

| SMILES | organism | assay | test system | setting | measurement | value |
| --- | --- | --- | --- | --- | --- | --- |
| NC(=O)NCCC[C@H](N)C(=O)O | Cryptosporidium parvum | parasite growth, imaging | HCT-8 | 1 mM, 24 h, intracellular | activity vs control | 102% |
| CN(Cc1ccc(C(C)(C)C)cc1)Cc1cccc2ccccc12 | Trichophyton rubrum | microbial growth, disc diffusion | ATCC28188 | 0.128 µg/mL, 6 days | inhibition zone | ≥ 55 mm |
| CCCCC[C@H](O)CC(=O)CCc1ccc(O)c(OC)c1 | Pseudomonas aeruginosa | microbial growth, absorbance |  | 100 µM, 24 h | activity vs control | 95% |
| O=C1CCN2C(=O)c3ccccc3C2C(=O)Nc2ccc(F)cc21 (stereo not drawn) | Schistosoma mansoni | parasite growth |  | 10 µM, 72 h, larva | inhibition | 33% |
| COc1cccc2[nH]ccc12 | Cryptosporidium parvum | parasite growth | HCT-8 | 24 h, intracellular | EC90 | 1320 µM |
| OCCn1cc(-c2ccc3c(c2)CC/C3=N\O)c(-c2ccncc2)n1 | Staphylococcus aureus | microbial growth | NCTC8325 |  | MIC | > 30 µM |
| COc1cc(C#CC(=O)c2ccc(C)cc2)ccc1O | Pseudomonas aeruginosa | microbial growth, absorbance |  | 10 µM, 24 h | activity vs control | 102% |
| CC(C)(C)[C@@H]1NC(=O)O[C@@H]2CCC[C@H]2OC/C=C/C(F)(F)c2nc3ccccc3nc2O[C@@H]2C[C@@H](C(=O)N[C@]3(C(=O)NS(=O)(=O)C4(C)CC4)C[C@H]3C(F)F)N(C2)C1=O | Trypanosoma cruzi | parasite growth, absorbance | Vero, TULAHUEN | 96 h, intracellular, amastigote | IC50 | 110 µM |
| CC1(C)CNc2cc(NC(=O)c3cccnc3NCc3ccncc3)ccc21 | Staphylococcus aureus | microbial growth | NCTC8325 |  | MIC | > 30 µM |
| CCC(C)C(=O)C#Cc1ccc(O)c(OC)c1 (stereo not drawn) | Pseudomonas aeruginosa | microbial growth, absorbance |  | 10 µM, 24 h | activity vs control | 105% |
| COc1cc(Nc2ncc3c(n2)-c2ccc(Cl)cc2C(c2c(F)cccc2OC)=NC3)ccc1C(=O)O | Staphylococcus aureus | microbial growth | NCTC8325 |  | MIC | > 30 µM |
| COc1cc(C#C[C@@H](O)CC(C)C)ccc1O | Pseudomonas aeruginosa | microbial growth, absorbance |  | 100 µM, 24 h | activity vs control | 96% |
| COC(=O)Nc1nc2ccc(C(=O)c3ccccc3)cc2[nH]1 | Cryptococcus neoformans | microbial growth, broth dilution |  | 72 h, clinical isolate | IC90 | 1.25 µM |
| O=C(NOC[C@H](O)CO)c1ccc(F)c(F)c1Nc1ccc(I)cc1F | Staphylococcus aureus | microbial growth | NCTC8325 |  | MIC | > 30 µM |
| Cc1ccc(Cc2ccc(NC(=O)CN(C)c3ccccc3N3CCCC3=O)cc2)cc1 | Plasmodium falciparum | parasite growth | 3D7 | 72 h, blood stage | EC50 | 0.728 µM |
| CCCC(=O)C#Cc1ccc(O)c(OC)c1 | Pseudomonas aeruginosa | microbial growth, absorbance |  | 10 µM, 24 h | activity vs control | 98% |
| NCCC(=O)O | Cryptosporidium parvum | parasite growth, imaging | HCT-8 | 1 mM, 24 h, intracellular | activity vs control | 112% |
| Cc1cn(-c2cc(NC(=O)c3ccc(C)c(Nc4nccc(-c5cccnc5)n4)c3)cc(C(F)(F)F)c2)cn1 | Staphylococcus aureus | microbial growth | NCTC8325 |  | MIC | > 30 µM |
| CC(=O)N[C@@H](CCC(=O)O)C(=O)O | Cryptosporidium parvum | parasite growth, imaging | HCT-8 | 1 mM, 24 h, intracellular | activity vs control | 96.7% |
| CC[C@H]1OC(=O)[C@H](C)[C@@H](O[C@H]2C[C@@](C)(OC)[C@@H](O)[C@H](C)O2)[C@H](C)[C@@H](O[C@@H]2O[C@H](C)C[C@H](N(C)C)[C@H]2O)[C@](C)(O)C[C@@H](C)C(=O)[C@H](C)[C@@H](O)[C@]1(C)O | Staphylococcus aureus | microbial growth | NCTC8325 |  | MIC | 0.26 µM (≈ 0.191 µg/mL) |
| CN(Cc1ccc(C2(C(F)(F)F)CC2)cc1)Cc1cccc2ccccc12 | Trichophyton rubrum | microbial growth, disc diffusion | ATCC28188 | 0.128 µg/mL, 6 days | inhibition zone | ≥ 55 mm |

| SMILES | organism | assay | test system | setting | measurement | value |
| --- | --- | --- | --- | --- | --- | --- |
| COc1cc(C#CC(=O)c2ccc(C(F)(F)F)cc2)ccc1O | Pseudomonas aeruginosa | microbial growth, absorbance |  | 100 µM, 24 h | activity vs control | 95% |
| Cc1ccc(Oc2ccc(NC(=O)CNc3ccccc3N3CCCCS3(=O)=O)cc2)cc1 | Plasmodium falciparum | parasite growth | 3D7 | 72 h, blood stage | EC50 | > 10 µM |
| N#Cc1cccc2[nH]ccc12 | Cryptosporidium parvum | parasite growth | HCT-8 | 24 h, intracellular | EC90 | 743 µM |
| Cc1ccc(Oc2ccc(NC(=O)C(C)Nc3ccccc3N3CCCC3=O)cc2)cc1 (stereo not drawn) | Plasmodium falciparum | parasite growth | 3D7 | 72 h, blood stage | EC50 | > 10 µM |
| COc1cc(C#CC(=O)c2ccccc2C)ccc1O | Pseudomonas aeruginosa | microbial growth, absorbance |  | 100 µM, 24 h | activity vs control | 122% |
| CC1(C)OC[C@@]2(C)[C@H]3CC[C@@H]4CN(Cc5ccccc5)[C@@H](C5=CCOC5=O)C[C@H]4[C@]3(C)CC[C@H]2O1 | unidentified human coronavirus | cytopathic effect | MRC5 | 25 µM, 72 h | inhibition | 13.4% |
| CC(=O)NC[C@H]1CN(c2ccc(N3CCOCC3)c(F)c2)C(=O)O1 | Staphylococcus epidermidis | microbial growth |  | clinical isolate | MIC50 | 1 µg/mL (≈ 2.96 µM) |
| N#Cc1ccc2cc[nH]c2c1 | Cryptosporidium parvum | parasite growth | HCT-8 | 24 h, intracellular | EC90 | 387 µM |
| CCN(CC)CCCC(C)Nc1ccnc2cc(Cl)ccc12 (stereo not drawn) | Plasmodium falciparum | parasite growth | 3D7 | 72 h, blood stage | EC50 | 0.03 µM |
| COc1cc(Nc2nc3ccccc3nc2NS(=O)(=O)c2ccc(NC(=O)c3ccc(C)c(OC)c3)cc2)cc(OC)c1 | Staphylococcus aureus | microbial growth | NCTC8325 |  | MIC | > 30 µM |
| CCCCC(=O)O | Cryptosporidium parvum | parasite growth, imaging | HCT-8 | 1 mM, 24 h, intracellular | activity vs control | 86.3% |
| C#CCC(Cc1cnc2nc(N)nc(N)c2n1)c1ccc(C(=O)N[C@@H](CCC(=O)O)C(=O)O)cc1 (stereo partly drawn) | Trypanosoma cruzi | parasite growth, absorbance | Vero, TULAHUEN | 96 h, intracellular, amastigote | IC50 | 0.12 µM |
| C=CC(=O)ON=C1C=CC(=C(C#N)c2ccccc2)C=C1 | Candida tropicalis | microbial killing, broth dilution | ATCC13803 | 48 h | MFC | 8 µg/mL (≈ 29 µM) |
| Cc1ccc(N(C)c2ccc(NC(=O)CN(C)c3ccccc3N3CCCC3=O)cc2)c(F)c1 | Plasmodium falciparum | parasite growth | 3D7 | 72 h, blood stage | EC50 | 0.02 µM |
| CCCS(=O)(=O)Oc1cc(C=NNC(=O)CSc2nc3ccc(Cl)cc3c(=O)n2-c2ccccc2)ccc1OC | Klebsiella pneumoniae | microbial growth, well diffusion |  | 20 µg/mL | inhibition zone | 2 mm |
| Cc1ccc(N(C)c2ccc(NC(=O)CN(C)c3ccccc3N3CCCC3=O)cc2)cc1Cl | Plasmodium falciparum | parasite growth | 3D7 | 72 h, blood stage | EC50 | 0.031 µM |
| Oc1cccc2cc[nH]c12 | Cryptosporidium parvum | parasite growth | HCT-8 | 24 h, intracellular | EC90 | 1180 µM |
| CN(CC(=O)Nc1ccc(N(C)c2ccc(Cl)c(Cl)c2)cc1)c1ccccc1N1CCCC1=O | Plasmodium falciparum | parasite growth | 3D7 | 72 h, blood stage | EC50 | 0.061 µM |
| CN(c1ncccc1CNc1nc(Nc2ccc3c(c2)CC(=O)N3)ncc1C(F)(F)F)S(C)(=O)=O | Staphylococcus aureus | microbial growth | NCTC8325 |  | MIC | > 30 µM |
| O=C(C#Cc1ccc(F)c(F)c1)c1ccccc1Cl | Pseudomonas aeruginosa | microbial growth, absorbance |  | 10 µM, 24 h | activity vs control | 98% |
| CN(CC(=O)Nc1ccc(N(C)c2ccc(Cl)cc2)c(Cl)c1)c1ccccc1N1CCCC1=O | Plasmodium falciparum | parasite growth | 3D7 | 72 h, blood stage | EC50 | 0.418 µM |

Repeated from above:
| SMILES | organism | assay | test system | setting | measurement | value |
| --- | --- | --- | --- | --- | --- | --- |
| CCCC(=O)C#Cc1ccc(O)c(OC)c1 | Pseudomonas aeruginosa | microbial growth, absorbance |  | 10 µM, 24 h | activity vs control | 98% |
| NCCC(=O)O | Cryptosporidium parvum | parasite growth, imaging | HCT-8 | 1 mM, 24 h, intracellular | activity vs control | 112% |
| Cc1cn(-c2cc(NC(=O)c3ccc(C)c(Nc4nccc(-c5cccnc5)n4)c3)cc(C(F)(F)F)c2)cn1 | Staphylococcus aureus | microbial growth | NCTC8325 |  | MIC | > 30 µM |
